Results gathered from unrelated publications.
Each numbered part is a random draw from the data of one study; scales do not carry over between parts.

Block 1 — technique: protein binding microarray; molecule type: double-stranded DNA, one strand shown; medium: in vitro; tested at: not given; baseline: not given; reading: higher = stronger binding
Target: Histone acetyltransferase KAT6A, winged helix 1, GST fusion (KAT6A, Homo sapiens, UniProt Q92794, residues 1-85)
Setting: 8-mer, flanks averaged, mean of 2 arrays, mostly near background
Target sequence (chain): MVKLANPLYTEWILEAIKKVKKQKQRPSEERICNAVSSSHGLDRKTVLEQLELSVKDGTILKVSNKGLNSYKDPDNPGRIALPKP
Oligonucleotide | E-score
ACAAACCT | -0.151
CAGACGAG | -0.153
TCAAGAAA | -0.223
CTATACCC | 0.0773

Block 2 — technique: universal PBM; molecule type: double-stranded DNA, one strand shown; medium: in vitro; tested at: 600 nM; reading: higher = stronger binding
Target: Sal-like protein 4, full length isoform A (SALL4, Homo sapiens, UniProt Q9UJQ4, residues 1-1053)
UniProt Q9UJQ4, sequence (whole entry, looked up): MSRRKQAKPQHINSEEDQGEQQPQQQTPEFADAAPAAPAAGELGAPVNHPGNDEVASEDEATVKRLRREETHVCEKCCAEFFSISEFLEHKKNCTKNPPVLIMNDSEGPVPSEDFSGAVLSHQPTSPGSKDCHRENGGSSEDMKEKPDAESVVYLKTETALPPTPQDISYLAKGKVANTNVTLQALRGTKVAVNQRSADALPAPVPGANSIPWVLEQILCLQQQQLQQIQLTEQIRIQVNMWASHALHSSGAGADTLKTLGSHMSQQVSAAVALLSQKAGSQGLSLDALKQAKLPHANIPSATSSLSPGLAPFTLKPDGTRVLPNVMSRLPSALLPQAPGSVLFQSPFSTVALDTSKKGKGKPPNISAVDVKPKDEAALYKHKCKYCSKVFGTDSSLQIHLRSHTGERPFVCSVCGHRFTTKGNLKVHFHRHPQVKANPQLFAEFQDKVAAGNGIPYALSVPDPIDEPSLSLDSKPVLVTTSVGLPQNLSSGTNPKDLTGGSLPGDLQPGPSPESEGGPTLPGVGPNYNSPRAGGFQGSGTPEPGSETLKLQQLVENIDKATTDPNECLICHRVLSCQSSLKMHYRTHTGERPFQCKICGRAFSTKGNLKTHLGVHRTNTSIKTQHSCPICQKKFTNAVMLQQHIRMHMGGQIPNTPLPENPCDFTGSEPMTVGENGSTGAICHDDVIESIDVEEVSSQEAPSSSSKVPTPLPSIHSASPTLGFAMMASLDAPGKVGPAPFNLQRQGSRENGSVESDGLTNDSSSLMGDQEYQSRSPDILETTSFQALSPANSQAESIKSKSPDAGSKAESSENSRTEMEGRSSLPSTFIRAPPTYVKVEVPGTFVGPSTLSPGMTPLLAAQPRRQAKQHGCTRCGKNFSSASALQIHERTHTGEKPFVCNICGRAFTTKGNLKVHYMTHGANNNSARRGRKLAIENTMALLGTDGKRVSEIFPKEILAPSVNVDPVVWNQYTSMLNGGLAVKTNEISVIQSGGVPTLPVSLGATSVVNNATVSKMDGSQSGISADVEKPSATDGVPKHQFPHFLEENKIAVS
Setting: 8-mer, flanks averaged, mean of replicates
Oligonucleotide | E-score
CTCCCTCA | -0.192
AAGTCTGT | 0.171
GTTCCCCA | -0.104
AAGAAGGA | 0.0649
CGGCCAAC | -0.3

Block 3 — technique: RNA Bind-n-Seq; molecule type: RNA; medium: in vitro; tested at: 200 nM; setting: whole 134-nt RNA, ends assumed; together with: 150 mM LiCl; baseline: input library; reading: higher = stronger binding; each molecule: 7-deaza-guanosine replaces G
Target: Ras GTPase-activating protein-binding protein 1, full length (G3BP1, Homo sapiens, UniProt Q13283)
UniProt Q13283, sequence (whole entry, looked up): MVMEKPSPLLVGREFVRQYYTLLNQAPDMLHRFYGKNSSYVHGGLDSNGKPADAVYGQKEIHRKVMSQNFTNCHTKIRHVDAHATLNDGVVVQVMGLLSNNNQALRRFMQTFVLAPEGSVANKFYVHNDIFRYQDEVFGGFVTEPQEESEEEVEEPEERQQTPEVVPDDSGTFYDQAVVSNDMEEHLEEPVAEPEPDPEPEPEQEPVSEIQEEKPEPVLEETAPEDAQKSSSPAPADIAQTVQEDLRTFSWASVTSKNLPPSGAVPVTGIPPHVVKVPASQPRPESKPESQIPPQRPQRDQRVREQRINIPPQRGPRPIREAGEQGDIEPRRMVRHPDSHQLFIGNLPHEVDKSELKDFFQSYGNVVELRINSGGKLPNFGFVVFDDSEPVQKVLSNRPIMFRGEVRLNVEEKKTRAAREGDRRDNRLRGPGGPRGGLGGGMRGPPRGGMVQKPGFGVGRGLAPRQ
Oligonucleotide | log2 enrichment
GGGAGUUCUACAGUCCGACGAUCCACAGACAACACGCACCCACACAGACACAGAGGGAAGGGGUUGGGAUGGGGACAGGGUGCACAGCAGGGCGGGGUAUGACCCCAGCCCCUUGGAAUUCUCGGGUGUCAAGG | 1.08
GGGAGUUCUACAGUCCGACGAUCCCUCAAGUCCUGUGCUACACAUCGUAUGUACCGAAUCGGGGUGGGUGGUGGGAAAGUAUUAUGUUACGCCGUUCGGAUCUGCACUUCCAGUGGAAUUCUCGGGUGUCAAGG | -0.104
GGGAGUUCUACAGUCCGACGAUCGCAGGCAGUAAAAACAAAUGGAAAUGCUUCGGAUAGUGGCAGGGGUGGGGGUUGCUAAGGAAAGGGUGGGAUGGGAGUGGGUAAAGAGUUUGGAAUUCUCGGGUGUCAAGG | -0.0777

Mixed results
Molecule | target | test | test system | conditions | how to read | endpoint | value
PhoQ, residues 284 288 289 292 302 303 WVSSAF | PhoP, residues 12 14 15 18 19 LHSVQ (Escherichia coli, UniProt P23836) | Sort-seq, item: YFP reporter | E. coli | PhoQ-PhoP variant library, together with: 10 µM Mg2+ | baseline: high Mg2+ state, higher = stronger signaling | fold induction | 7.58

Some of these lines once more (block 3):
Oligonucleotide | log2 enrichment
GGGAGUUCUACAGUCCGACGAUCCACAGACAACACGCACCCACACAGACACAGAGGGAAGGGGUUGGGAUGGGGACAGGGUGCACAGCAGGGCGGGGUAUGACCCCAGCCCCUUGGAAUUCUCGGGUGUCAAGG | 1.08
